Published values pooled from the literature.
Each line is one published result; not all experiments were run side by side. Numbers after ± are the reported error.

| SMILES | cell line | test | test system | conditions | how to read | measurement | value |
| --- | --- | --- | --- | --- | --- | --- | --- |
| C[C@H](CCC1OC1(C)C)[C@@H]1CC[C@]2(C)C3=C(CC[C@@]12C)[C@@]1(C)CC[C@H](O)C(C)(C)[C@@H]1CC3 (some centres unmarked) | SK-LU-1 | cell growth or viability, SRB | – | 50 µM | – | inhibition | 4.6% |
| Cc1cnc(Nc2ccc(C3CCN(C)CC3)c(F)c2)nc1Nc1ccc(Cl)c(NS(=O)(=O)C(C)(C)C)c1 | human mesenchymal stem cells | MTS | – | concentration not given, 24 and 48 h | – | cytotoxicity | not toxic |
| O=C(O)CNc1nc(Cl)nc(NNC(=O)c2ccc(Nc3nc(Nc4ccc(C(=O)NNc5nc(Cl)nc(NCC(=O)O)n5)cc4)nc(Nc4ccc(C(=O)NNc5nc(Cl)nc(NCC(=O)O)n5)cc4)n3)cc2)n1 | WI-38 cells | cell viability, MTT | – | 72 h | – | maximum non-toxic concentration | 17.1 nM |
| CCc1ccc(NC(=O)C(C)Sc2nnc(C3CCN(C(=O)Nc4ccccc4)CC3)n2CC)cc1 (centres unmarked) | human blood mononuclear cells | MTT | – | 0.25 mM, 2 h, pH 7.4 | – | viability | 87.6 ± 2.6% |
| CCN(CC)c1ccc(C=NNC(=O)c2ccccn2)c(O)c1 | rabbit erythrocytes | – | – | 1 h | – | HC50 | > 256 µg/mL |
| O=C(O)CNc1nc(NNC(=O)c2ccc(Nc3nc(Nc4ccc(C(=O)NNc5nc(NCC(=O)O)nc(N6CCCCC6)n5)cc4)nc(Nc4ccc(C(=O)NNc5nc(NCC(=O)O)nc(N6CCCCC6)n5)cc4)n3)cc2)nc(N2CCCCC2)n1 | WI-38 cells | cell viability, MTT | – | 72 h | – | maximum non-toxic concentration | 1 ± 0.1 nM |
| NS(=O)(=O)c1ccc(NC(=O)NN[C@@H]2O[C@H](CO)[C@@H](O)[C@H](O)[C@@H]2O)cc1 | rabbit erythrocytes | – | – | 4 µg/mL, 3 h | baseline: complete lysis | hemolysis | 0% |
| CSCC(NC(=O)c1cc(Cl)ccc1Cl)C(=O)NC(O)CC(C)C (centres unmarked) | beagle dog primary hepatocytes | UPLC-Q-TOF MS | – | 3 µM of prodrug, 3 h | – | detection | not detected |
| Fc1ccc2[nH]c(NCCCNCc3cc(Cl)cc(Cl)c3)nc2c1 | CRL-8155 and HepG2 | cytotoxicity | – | – | – | EC50 | ~10 µM |
| CC(=O)Nc1ccc(/C=C/c2nc3ccc(Br)cc3nc2/C=C/c2ccc(NC(C)=O)cc2)cc1 | Hs68 | MTT | – | concentration not given, 72 h | baseline: 5-fluorouracil | cytotoxicity fold lower | ~3 fold |
| CC(C)C[C@H](NC(=O)[C@H](C)NC(=O)[C@H](CCCCN)NC(=O)[C@H](C)NC(=O)[C@H](CCCNC(=N)N)NC(=O)[C@H](C)NC(=O)[C@H](CCC(N)=O)NC(=O)[C@H](CCCNC(=N)N)NC(=O)[C@H](C)NC(=O)[C@H](C)NC(=O)[C@H](C)NC(=O)[C@H](CCCNC(=N)N)NC(=O)[C@H](C)NC(=O)[C@H](Cc1ccc(O)cc1)NC(=O)CCNC(=S)Nc1ccc2c(c1)C(=O)OC21c2ccc(O)cc2Oc2cc(O)ccc21)C(=O)N[C@@H](C)C(=O)N[C@@H](CCCNC(=N)N)C(=O)N[C@@H](CCC(N)=O)C(=O)N[C@@H](CC(C)C)C(=O)NCC(=O)N[C@H](C(=O)N[C@@H](C)C(=O)N[C@@H](C)C(N)=O)C(C)C | mesothelial cells | flow cytometry | – | 30 µM, with: 100 µM EIPA | – | uptake | inhibited |
| CCN(CC)C(=O)C(C)Sc1nnc(C2CCN(C(=O)Nc3ccccc3)CC2)n1CC (centres unmarked) | human blood mononuclear cells | MTT | – | 0.25 mM, 2 h, pH 7.4 | – | viability | 81.3 ± 2.8% |
| COc1cccc2c1C(=O)c1c(O)c3c(c(O)c1C2=O)CC(O)(C(=O)CO)CC3OC1CC(NC(=O)C[C@H](N)C(=O)O)C(O)C(C)O1 (some centres unmarked) | H1299 (LAT1-negative) | HPLC | – | 50 µg/mL, 2 h, serum-free medium | – | cellular uptake | 0.018 ± 0.0022 µg/mL |
| COC(=O)COc1ccc(NC(=O)C2(c3ccc(Cl)c(Cl)c3)CC2)c(C)c1 | U-937 | LDH release | – | 100 µM, 4 h | baseline: Triton X-100 | cytotoxicity | -2% |
| Nc1cccc[n+]1Cc1cccc(C[n+]2ccccc2N)c1 | MRC-5 | – | – | concentration not given | – | cytotoxicity | not toxic |
| CN(C)c1cc(CNCCC(C)(C)C)c(O)c2c1C[C@H]1C[C@H]3[C@H](N(C)C)C(O)=C(C(N)=O)C(=O)[C@@]3(O)C(O)=C1C2=O | CHO | cytotoxicity, resazurin | – | 10% fetal calf serum | – | TC50 | > 100 µg/mL |
| COc1ccc([C@@H]2C3CCCN3[C@@]3(c4ccccc4-c4nc5ccccc5nc43)[C@H]2C(=O)c2nc3ccccc3[nH]2)cc1 (some centres unmarked) | WI-38 lung fibroblasts | cytotoxicity, MTT | medium with 10% FBS | 72 h, dose at 100% viability | – | EC100 | 0.086 ± 0.003 µM |
| Clc1cc(Cl)cc(CNCCCNc2nc3ccccc3[nH]2)c1 | CRL-8155 and HepG2 | cytotoxicity | – | – | – | EC50 | ~5 µM |
| COC1CCC2(C)C3=C(CCC2C1(C)C)C1(C)CCC(C(C)CCC=C(C)C)C1(C)CC3 (centres unmarked) | SK-LU-1 | cell growth or viability, SRB | – | 50 µM | – | inhibition | 21.6% |
| C=CC(C)(C)c1c(O)cc2c(c1O)C(=O)CC(c1ccccc1)O2 (centres unmarked) | U-937 | cytotoxicity, resazurin | RPMI with FBS | 24 h | – | EC50 | 59.9 ± 5.2 µg/mL |
| CCn1c(SC(C)C(=O)NC2CCCCC2)nnc1C1CCN(C(=O)Nc2ccccc2)CC1 (centres unmarked) | human blood mononuclear cells | MTT | – | 0.25 mM, 2 h, pH 7.4 | – | viability | 83.8 ± 2.9% |
| Fc1cc2nc(NCCCNCc3cc(Cl)cc(Cl)c3)[nH]c2cc1F | CRL-8155 and HepG2 | cytotoxicity | – | – | – | EC50 | ~10 µM |
| CC(C)CNCc1cc(N(C)C)c2c(c1O)C(=O)C1=C(O)[C@]3(O)C(=O)C(C(N)=O)=C(O)[C@@H](N(C)C)[C@@H]3C[C@@H]1C2 | CHO | cytotoxicity, resazurin | – | 10% fetal calf serum | – | TC50 | > 100 µg/mL |
| CC(=O)N[C@H](C(=O)N[C@H](C(=O)N[C@@H](CCCNC(=N)N)C(=O)N1Cc2ccccc2C[C@H]1C(=O)N[C@@H](Cc1ccccc1)C(N)=O)C1CCCCC1)C(C)C | human PBMC | Bio-Plex multiplex, item: IL-9 | – | 500 µg/mL, 24 h | – | cytokine level | 12.3 ± 4.8 pg/mL |
| O=C(CNc1nc(NNC(=O)c2ccc(Nc3nc(Nc4ccc(C(=O)NNc5nc(NCC(=O)NO)nc(N6CCOCC6)n5)cc4)nc(Nc4ccc(C(=O)NNc5nc(NCC(=O)NO)nc(N6CCOCC6)n5)cc4)n3)cc2)nc(N2CCOCC2)n1)NO | WI-38 cells | cell viability, MTT | – | 72 h | – | maximum non-toxic concentration | 1.7 ± 0.1 nM |
| O=C(Cn1cccc([N+](=O)[O-])c1=O)c1c[nH]c2ccccc12 | BRCA-proficient human cells | – | – | 100 µM, 72 h, pre-treatment | – | clonogenic survival | toxic |
| CN(C)c1cc(CNC2CCCC2)c(O)c2c1C[C@H]1C[C@H]3[C@H](N(C)C)C(O)=C(C(N)=O)C(=O)[C@@]3(O)C(O)=C1C2=O | CHO | cytotoxicity, resazurin | – | 10% fetal calf serum | – | TC50 | > 100 µg/mL |
| CCn1c(SC(C)C(=O)NCc2ccccc2)nnc1C1CCN(C(=O)Nc2ccccc2)CC1 (centres unmarked) | human blood mononuclear cells | MTT | – | 0.25 mM, 2 h, pH 7.4 | – | viability | 79.7 ± 2.8% |
| O=C(Cn1cc(C2CC(c3ccccc3)=NN2)nn1)Nc1nc(-c2ccccc2)cs1 (centres unmarked) | WI-38 | MTT | – | 72 h, 100% viability, 10% FBS | – | safe concentration | 122 ± 11 nM |
